Measurements of several laboratories.
Each line is one published result; not all experiments were run side by side.
MET Y1235D: Hepatocyte growth factor receptor (MET, Homo sapiens, UniProt P08581, Y1235D)
MET M1250T: Hepatocyte growth factor receptor (MET, Homo sapiens, UniProt P08581, M1250T)
MET: Hepatocyte growth factor receptor (MET, Homo sapiens, UniProt P08581)

Structure (SMILES) | target | assay | setting | how to read | remaining binding [%]
CNC1C[S+]2CC[S+]3CC[S+](C1)[Ru-4]321([N]=C=S)[n]2c3ccc(OC)cc3c3c4c(c5cc(F)c[n+]1c5c32)C(=O)NC4=O (centres unmarked) | MET Y1235D | KinomeScan | 0.1 µM | relative to: untreated | 100
C=CC(=O)N1CCc2ccc(-n3c(=O)ccc4cnc5ccc(-c6cnn(C)c6)cc5c43)cc21 | MET M1250T | KINOMEscan | 1 µM | relative to: DMSO control | 92
Cc1cnc2nc1Nc1cccc(c1)COC/C=C/COCc1cc(ccc1OCCN1CCOCC1)N2 | MET | binding | 0.1 µM |  | 72
C=CC(=O)N1CCCC(n2c(=O)c3ncccc3n(Cc3ccc(Oc4ccccc4)cc3)c2=O)C1 (centres unmarked) | MET Y1235D | cell-free assay, competition with immobilised ligand | 1 µM |  | 82
CCN1CCN(Cc2ccc(C(=O)Nc3ccc(C)c(NCc4cnc5[nH]ccc5c4OC)c3)cc2C(F)(F)F)CC1 | MET Y1235D | binding, competition with immobilised ligand | 1 µM |  | 100
COc1cc(Nc2nccc(-c3cnn4nc(OC)ccc34)n2)cc(C(F)(F)F)c1 | MET | binding, competition with immobilised ligand | 1 µM |  | 100
CNC(=O)C1CCN(c2cc(C)c(F)cc2NC(=O)c2ccc(-c3cc(O)ccc3C)c(C)c2)CC1 | MET M1250T | binding, competition with immobilised ligand | 1 µM |  | 100
Cc1ccc(-c2c(/C=C(\C#N)C(=O)NC(C)C)n(CCCO)c3ncnc(N)c23)cc1 | MET Y1235D | cell-free assay, competition with immobilised ligand | 1 µM |  | 88
COc1c(Cl)cccc1Nc1c(-c2ccncc2C#C[C@@]2(C)CCCN2C(=O)/C=C/CN(C)C)[nH]c2c1C(=O)NCC2 | MET Y1235D | cell-free assay, competition with immobilised ligand | 3 µM |  | 85
Nc1ncc2c(n1)-c1c([nH]c3ccc(C4=CCOCC4)cc13)CCC2 | MET M1250T | binding, competition with immobilised ligand | 1 µM |  | 100
CC(C)=CC1OC(C)(C)C2C=C3C(=O)C(Cl)=CC(O)C3C3C(O)C4OC4C(=O)C132 (centres unmarked) | MET Y1235D | cell-free assay, competition with immobilised ligand | 10 µM |  | 90
